Measurements pooled from the literature.
Compare with care: the assays were run in different laboratories. Numbers after ± are the reported error.
rep main protease: Replicase polyprotein 1ab, main protease (rep, Severe acute respiratory syndrome coronavirus 2, UniProt P0DTD1)
rep nsp13 helicase: Replicase polyprotein 1ab, nsp13 helicase (rep, Severe acute respiratory syndrome coronavirus 2, UniProt P0DTD1)
rep nsp14 N7-methyltransferase: Replicase polyprotein 1ab, nsp14 N7-methyltransferase (rep, Severe acute respiratory syndrome coronavirus 2, UniProt P0DTD1)

SMILES | target or system | test | system | conditions | scale | measurement | result
CC[C@H](C)[C@H](NC(=O)[C@H](CC(C)C)NC(=O)[C@H](Cc1c[nH]c2ccccc12)NC(=O)[C@H](CCC(N)=O)NC(=O)[C@@H](NC(=O)[C@H](Cc1ccccc1)NC(=O)[C@H](C)NC(=O)[C@H](CCCCNC(=O)COCCOCCNC(=O)COCCOCCNC(=O)CC[C@H](NC(=O)CCCCCCCCCCCCCCCCCCC(=O)O)C(=O)O)NC(=O)[C@H](CCC(N)=O)NC(=O)[C@H](C)NC(=O)[C@@H](NC(=O)[C@H](CCCCN)NC(=O)[C@H](CC(=O)O)NC(=O)[C@H](CC(C)C)NC(=O)C(C)(C)NC(=O)[C@@H](NC(=O)[C@H](CO)NC(=O)[C@H](Cc1ccc(O)cc1)NC(=O)[C@H](CC(=O)O)NC(=O)[C@H](CO)NC(=O)[C@@H](NC(=O)[C@H](Cc1ccccc1)NC(=O)[C@@H](NC(=O)CNC(=O)[C@H](CCC(=O)O)NC(=O)C(C)(C)NC(=O)[C@@H](N)Cc1ccc(O)cc1)[C@@H](C)O)[C@@H](C)O)[C@@H](C)CC)[C@@H](C)CC)C(C)C)C(=O)N[C@@H](C)C(=O)NCC(=O)NCC(=O)N1CCC[C@H]1C(=O)N[C@@H](CO)C(=O)N[C@@H](CO)C(=O)NCC(=O)N[C@@H](C)C(=O)N1CCC[C@H]1C(=O)N1CCC[C@H]1C(=O)N1CCC[C@H]1C(=O)N[C@@H](CO)C(N)=O | – | – | human type 2 diabetes patients, plasma | 5 mg, day 22 | – | half-life | 114 h
Cc1c(-c2ccnn2C)cc(C(=O)NCc2ccc(S(C)(=O)=O)cn2)c(=O)n1-c1cccc(C(F)(F)F)c1 | rep main protease | reporter gene (mKate2), inhibitor | – | 20 µM | – | inhibition | -0.373%
CC(C)(C)c1ccc(N(C(=O)CCl)C(C(=O)NC2CCCCC2)c2cccnc2)cc1 (stereo not drawn) | rep main protease | enzyme activity, inhibitor | – | – | – | kinact | 0.003 s⁻¹
O=C(NCCCCN1CCOCC1)c1cc2ccccc2o1 | rep main protease | viral replication, mKate2 reporter | SARS-CoV-2 | 20 µM | – | inhibition | -0.428%
CC(Oc1ccccc1)C(=O)NCc1ccccn1 (stereo not drawn) | rep nsp13 helicase | binding, affinity selection mass spectrometry | – | – | reference: other proteins in batch | log fold enrichment | -0.109
O=C(NC[C@H](NC(=O)c1cncc2ccccc12)c1ccc2ccccc2c1)c1cccnc1 | rep main protease | enzyme activity, inhibitor | – | 5 µM, run 2 | – | inhibition | 12.3%
O=c1c(O)c(-c2cc(O)c(O)c(O)c2)oc2cc(O)cc(O)c12 | rep nsp14 N7-methyltransferase | N7-methyltransferase activity, inhibitor, Py-FLINT | – | – | – | Hill slope | 1.54 ± 0.19
O=C(NC[C@H]1Cc2ccccc2CN1C(=O)c1n[nH]c(=O)[nH]c1=O)c1cccc2ccncc12 | rep main protease | enzyme activity, inhibitor | – | 5 µM, mean of runs | – | inhibition | 11.1%
CC(C)=CCC/C(C)=C/COc1ccc2ccc(=O)oc2c1 | rep main protease | reporter gene (mKate2), inhibitor | HEK293T | 20 µM | – | inhibition | 0.699%
O=C(Oc1cncc(Br)c1)c1cccc2[nH]ccc12 | rep main protease | inhibitor, biochemical | – | – | – | kinact/Ki | 24000 M⁻¹ s⁻¹
CC1=NN(c2ccccc2)C(=O)C1 | rep main protease | reporter gene (Gaussia luciferase), inhibitor | – | 20 µM | – | inhibition | 0.985%
CCc1cc(C(=O)N2CC[C@@H]([C@@H]3CCCN3C(=O)c3ccc4oc(N)nc4c3)C2)cc(=O)[nH]1 | rep main protease | enzyme activity, inhibitor | – | 5 µM, run 1 | – | inhibition | 9.5%
C[C@H]1CC[C@]2(NC1)O[C@H]1C[C@H]3[C@@H]4CC[C@H]5C[C@@H](O[C@@H]6O[C@H](CO)[C@H](O[C@@H]7O[C@H](CO)[C@@H](O)[C@H](O[C@@H]8OC[C@@H](O)[C@H](O)[C@H]8O)[C@H]7O[C@@H]7O[C@H](CO)[C@@H](O)[C@H](O)[C@H]7O)[C@H](O)[C@H]6O)CC[C@]5(C)[C@H]4CC[C@]3(C)[C@H]1[C@@H]2C | rep main protease | reporter gene (Gaussia luciferase), inhibitor | – | 20 µM | – | inhibition | -7%
CCCCCCCCOc1ccccc1C(=O)Nc1ccc(C(=O)OCC[N+](C)(CC)CC)cc1 | rep nsp14 N7-methyltransferase | N7-methyltransferase activity, inhibitor, Py-FLINT | – | – | – | Hill slope | 2.63 ± 1.4
O=C(c1cccc(-c2n[nH]c(=O)[nH]2)c1)N1CCO[C@H](c2cn(-c3cccnc3)nn2)C1 | rep main protease | enzyme activity, inhibitor | – | 5 µM | – | inhibition | 16.1%
Cc1cccc(CNC(=O)c2cccc(-c3ccc(S(=O)(=O)CC(=O)O)cc3)c2)c1C | rep nsp13 helicase | NSP13 ATPase activity, Kinase-Glo luminescence | SARS-CoV-2 | concentration not given | – | activity class | inactive
N#C[C@@]1(n2ccc(N)nc2=O)O[C@H](COP(=O)(O)OP(=O)(O)OP(=O)(O)O)[C@@H](O)[C@H]1O | Replicase polyprotein 1ab, nsp12 with nsp7/nsp8 (rep, Severe acute respiratory syndrome coronavirus 2, UniProt P0DTD1) | guanosine analog incorporation | – | 10 µM, added: CTP 275 µM | – | incorporation per template position | 270
O=C(N[C@@H](CNC(=O)[C@H]1CC12CC2)c1ccc2ccccc2c1)c1cncc2ccccc12 | rep main protease | enzyme activity, inhibitor | – | 5 µM, mean of runs | – | inhibition | 13.3%

For quick reference, copied from above:
SMILES | target or system | test | system | conditions | scale | measurement | result
CC1=NN(c2ccccc2)C(=O)C1 | rep main protease | reporter gene (Gaussia luciferase), inhibitor | – | 20 µM | – | inhibition | 0.985%
CCc1cc(C(=O)N2CC[C@@H]([C@@H]3CCCN3C(=O)c3ccc4oc(N)nc4c3)C2)cc(=O)[nH]1 | rep main protease | enzyme activity, inhibitor | – | 5 µM, run 1 | – | inhibition | 9.5%
